Experimental data of several laboratories.
Parts stem from different laboratories: compare values within a part only. Positions count from the first letter of the parent shown.

Sample 1
Target: ABI1, truncated, D143A, DHFR fusion (Arabidopsis thaliana)
Method: DHFR PCA, deep sequencing
Sample: yeast
Notes: methotrexate growth selection, single substitutions
Together with: (+)-ABA 710 µM
Reference: wild-type fitted maximum
Reading: higher = stronger binding
Starting sequence: PYL1, truncated, DHFR fusion (Arabidopsis thaliana); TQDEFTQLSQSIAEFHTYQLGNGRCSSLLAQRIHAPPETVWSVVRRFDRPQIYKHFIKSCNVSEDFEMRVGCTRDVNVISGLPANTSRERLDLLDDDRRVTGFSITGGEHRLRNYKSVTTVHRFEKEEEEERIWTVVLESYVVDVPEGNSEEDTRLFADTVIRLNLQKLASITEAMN; partner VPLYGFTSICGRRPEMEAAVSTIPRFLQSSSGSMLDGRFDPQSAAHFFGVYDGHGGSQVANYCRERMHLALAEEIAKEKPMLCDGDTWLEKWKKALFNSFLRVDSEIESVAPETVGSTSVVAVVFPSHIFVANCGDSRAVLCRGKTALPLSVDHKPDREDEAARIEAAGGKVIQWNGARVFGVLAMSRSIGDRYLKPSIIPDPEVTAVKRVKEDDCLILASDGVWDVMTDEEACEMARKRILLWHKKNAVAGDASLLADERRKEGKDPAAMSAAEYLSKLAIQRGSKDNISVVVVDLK
Variant	relative binding score
S117T	56.5%
I57K	-7.68%
V136D	77%
I52Q	100%
T173N	83%
S9C	84.9%
R163A	86.6%

Sample 2
Target: Histone acetyltransferase KAT6A, winged helix 1, GST fusion (KAT6A, Homo sapiens, UniProt Q92794, residues 1-85)
Method: protein binding microarray
Molecule type: double-stranded DNA, one strand shown
Sample: in vitro
Tested at: not given
Notes: 8-mer, flanks averaged, mean of 2 arrays, mostly near background
Reference: not given
Reading: higher = stronger binding
Residues (chain): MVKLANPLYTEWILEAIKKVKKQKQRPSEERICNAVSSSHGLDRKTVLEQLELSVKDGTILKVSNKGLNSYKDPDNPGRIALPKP
Sequence	E-score
CCGAGCTC	0.0362
CTCGCGTC	0.176
ATCACTGG	-0.157
CCCGGCAG	0.125
ATGTGTAC	-0.0559
ATTCGCCC	0.112
CAATCACC	-0.0801
CTAGACAC	-0.137
CGCGACTC	0.177
TGAGTGCA	-0.0932

Sample 3
Target: Sal-like protein 4, full length isoform A (SALL4, Homo sapiens, UniProt Q9UJQ4, residues 1-1053)
UniProt Q9UJQ4, sequence (whole entry, looked up): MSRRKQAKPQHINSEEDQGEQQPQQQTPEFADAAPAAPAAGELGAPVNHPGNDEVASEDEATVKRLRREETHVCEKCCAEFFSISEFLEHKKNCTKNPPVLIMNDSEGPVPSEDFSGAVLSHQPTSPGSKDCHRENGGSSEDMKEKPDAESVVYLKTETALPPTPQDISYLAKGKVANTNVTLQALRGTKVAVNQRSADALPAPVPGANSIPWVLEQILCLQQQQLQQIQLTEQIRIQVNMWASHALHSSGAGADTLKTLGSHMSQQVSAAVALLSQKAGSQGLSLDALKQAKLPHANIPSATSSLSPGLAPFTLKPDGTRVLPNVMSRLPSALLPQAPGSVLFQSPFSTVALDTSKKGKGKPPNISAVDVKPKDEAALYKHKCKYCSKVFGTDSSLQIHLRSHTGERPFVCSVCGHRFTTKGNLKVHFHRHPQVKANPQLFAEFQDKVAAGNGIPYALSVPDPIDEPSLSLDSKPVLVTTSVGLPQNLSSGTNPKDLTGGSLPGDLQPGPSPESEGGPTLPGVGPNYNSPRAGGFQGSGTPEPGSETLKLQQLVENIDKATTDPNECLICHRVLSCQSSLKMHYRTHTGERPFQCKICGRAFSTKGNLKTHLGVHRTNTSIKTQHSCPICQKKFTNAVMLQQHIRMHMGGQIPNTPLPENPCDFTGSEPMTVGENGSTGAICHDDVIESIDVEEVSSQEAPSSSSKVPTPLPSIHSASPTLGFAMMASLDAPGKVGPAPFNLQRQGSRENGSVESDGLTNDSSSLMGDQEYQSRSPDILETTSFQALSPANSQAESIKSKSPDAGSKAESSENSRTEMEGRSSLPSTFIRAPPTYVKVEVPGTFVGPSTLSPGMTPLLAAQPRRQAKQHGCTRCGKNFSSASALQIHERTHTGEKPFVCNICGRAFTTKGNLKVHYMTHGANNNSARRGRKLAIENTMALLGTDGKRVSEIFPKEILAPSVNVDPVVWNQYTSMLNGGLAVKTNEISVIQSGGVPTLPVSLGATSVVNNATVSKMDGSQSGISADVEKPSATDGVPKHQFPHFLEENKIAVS
Method: universal PBM
Molecule type: double-stranded DNA, one strand shown
Sample: in vitro
Tested at: 600 nM
Notes: 8-mer, flanks averaged, mean of replicates
Reading: higher = stronger binding
Sequence	E-score
CCTAGGTC	-0.249
CATGGGAG	-0.0898
CACTGAGA	-0.0121
GCTTGGTA	-0.0837
AGCGATGC	-0.273
ACGTGTAA	0.156
ACGTTCCA	-0.101

Mixed results
Substance	target	assay	system	setting	how to read	endpoint	value
PhoQ, residues 284 288 289 292 302 303 NLMGRA	PhoP, residues 12 14 15 18 19 SMASL (Escherichia coli, UniProt P23836)	Sort-seq, refers to: YFP reporter	E. coli	PhoQ-PhoP variant library, together with: 10 µM Mg2+	reference: high Mg2+ state, higher = stronger signaling	fold induction	10.7

Repeated from above (sample 3):
Sequence	E-score
GCTTGGTA	-0.0837
AGCGATGC	-0.273
ACGTGTAA	0.156
